Measurements gathered from unrelated publications.
Protocols differ between the studies behind these lines. “And” joins repeats or separate records; there may be more than shown. ± marks the error that the study gave.

Structure (SMILES) | test system | conditions | measurement | value
Cc1cc(C)cc(C(=O)c2c(C(C)C)c(=O)[nH]c(=O)n2Cc2ccnc(N)c2)c1 | Sprague-Dawley rats, male, plasma | intravenous, 20 mg/kg | elimination rate constant | 0.000152 ± 9.78e-05 s⁻¹
C=CC(=O)N1CCC[C@@H](n2nc(-c3ccc(Oc4ccccc4)cc3)c3c(N)ncnc32)C1 | Wistar rat, plasma | oral, dose not given, suspension | elimination half-life | 3.41 ± 1.36 h
CC(C)c1nc(N(C)S(C)(=O)=O)nc(-c2ccc(F)cc2)c1/C=C/[C@@H](O)C[C@@H](O)CC(=O)O | Wistar albino rat, both sexes, plasma | oral, 20 mg/kg | elimination rate constant | 7.78e-06 s⁻¹ and 1.83e-05 s⁻¹ and 3.33e-05 s⁻¹ and 4.72e-06 s⁻¹
O=c1oc2c(O)c(O)cc3c(=O)oc4c(O)c(O)cc1c4c23 | rat, plasma | oral, 1000 mg/kg extract, possible metabolite or extract component | elimination rate constant | 0.000108 ± 2.5e-05 s⁻¹
N#C[C@@]12C[C@@H]1[C@@H](n1cnc3c(N[C@@H](C4CCC4)C4CC4)nc(I)nc31)[C@H](O)[C@@H]2O | Wistar rats male, plasma | oral, 10.0 mg/kg | elimination rate constant | 0.00011 s⁻¹
O=C(O)c1cc(O)c(O)c(O)c1 | rat, plasma | oral, 500 mg/kg extract, extract | elimination rate constant | 7.78e-05 ± 2.78e-06 s⁻¹
CCc1c(-c2ccccc2)c(-c2ccccc2)nn1-c1ccccc1-c1cccc(OCC(=O)O)c1 | Sprague-Dawley rat | oral | elimination rate constant | 6.42e-05 s⁻¹ and 6.52e-05 s⁻¹ and 5.87e-05 s⁻¹
O=C1C[C@@H](c2ccc(O)cc2)Oc2cc(O)cc(O)c21 | Sprague-Dawley rat, plasma | intravenous bolus, 1 mg/kg | elimination rate constant | 0.000117 ± 0.000147 s⁻¹
Nc1nc(O)c2ncn(COC(CO)CO)c2n1 | Sprague-Dawley rat, male | oral, 10 mg/kg | elimination rate constant | 0.000108 ± 1.83e-05 s⁻¹
C=CC(=O)N1CCC(Oc2cc3c(Nc4ccc(Cl)c(Cl)c4F)ncnc3cc2OC)CC1 | Sprague-Dawley rat, male, plasma | oral, 2 mg/kg, with: vehicle pretreatment | elimination half-life | 2.72 ± 0.85 h
C=CC(=O)N1CCC[C@@H](n2nc(-c3ccc(Oc4ccccc4)cc3)c3c(N)ncnc32)C1 | male Wistar rat, plasma | oral, 40 mg/kg | elimination rate constant | 7.67e-05 s⁻¹
